Published values collected from several papers.
± marks the error that the study gave. Values after ≈ are worked out from the molar mass of the structure shown.

c1ccc(CN2CCOCCOCCN(CCCCCCCCCCCCCCN3CCOCCOCCN(CCCCCCCCCCCCCCN4CCOCCOCCN(Cc5ccccc5)CCOCCOCC4)CCOCCOCC3)CCOCCOCC2)cc1
FIC index (Klebsiella pneumoniae; ATCC BAA-2146; quarter MIC, together with: ciprofloxacin): 0.82

N#Cc1cccc(-c2ccc([C@H]3[C@@H](F)[C@@H](F)C[C@@H](F)[C@H]3F)cc2)c1
hepatic clearance (liver microsome stability; mouse liver microsomes; 1 µM): 20 mL/min/kg

Cc1cccc2c1N(C(=O)n1ccnn1)CC2
hypocotyl length (Arabidopsis thaliana; wild type; 1 µM, seedlings): 10.8 mm

c1ccc(CN2CCOCCOCCN(CCCCCCCCN3CCOCCOCCN(CCCCCCCCN4CCOCCOCCN(Cc5ccccc5)CCOCCOCC4)CCOCCOCC3)CCOCCOCC2)cc1
tetracycline MIC (Klebsiella pneumoniae; ATCC BAA-2146; 2.5 µM, together with: tetracycline): 1000 ± 100 µM

C=C(NC(=O)c1csc(-c2nc3c(cc2O)-c2nc(cs2)C(=O)NC(C(C)O)C(=O)NC(=C(C)OC)c2nc(cs2)C(=O)NC2c4nc(cs4)C(=O)NC(COC(=O)c4c5c6c(cccc6n4O)COC(=O)C(OC4CC(C)(O)C(N(C)C)C(C)O4)C2OC5)c2nc-3cs2)n1)C(N)=O (centres unmarked)
MIC50 (Staphylococcus aureus): 7.8 ng/mL (≈ 5.43 nM)

CC(C)(C)NCC(SS(=O)(=O)O)c1ccccc1 (centres unmarked)
liver weight reduction (Schistosoma mansoni; infected mouse; 200 mg/kg, 1368 h; baseline: vehicle): 34%

Nc1nc(-c2ccc(Cl)cc2)nc2[nH]nc(Nc3cccc(F)c3)c12
IC50 (rhinovirus B48; viral cytopathic effect; HeLa): 4.51 µM

c1ccc(CN2CCOCCOCCN(CCCCCCCCCCN3CCOCCOCCN(CCCCCCCCCCN4CCOCCOCCN(Cc5ccccc5)CCOCCOCC4)CCOCCOCC3)CCOCCOCC2)cc1
tetracycline MIC (Klebsiella pneumoniae; ATCC BAA-2146; half MIC, together with: tetracycline): 125 ± 25 µM

Nc1nc(-c2ccccc2)nc2[nH]nc(Nc3cc(F)c(F)c(F)c3)c12
IC50 (rhinovirus B48; viral cytopathic effect; HeLa): 3.09 µM

Cc1cc(Cl)cc(S(C)=NC#N)c1NC(=O)c1cc(Br)nn1-c1ncccc1Cl (centres unmarked)
larval survival (Spodoptera litura; Brassica oleracea field; 50 ppm, 168 h, 10% wettable powder): 17.1%

CN(C)C(=O)CNC(=O)c1ccc(C2CCCCC2)cc1
hepatic clearance (hepatocyte stability; cryopreserved human hepatocytes; 1 µM): 17 mL/min/kg

For quick reference, copied from above:
CN(C)C(=O)CNC(=O)c1ccc(C2CCCCC2)cc1
hepatic clearance (hepatocyte stability; cryopreserved human hepatocytes; 1 µM): 17 mL/min/kg

Cc1cccc2c1N(C(=O)n1ccnn1)CC2
hypocotyl length (Arabidopsis thaliana; wild type; 1 µM, seedlings): 10.8 mm
